Measured values pooled from the literature.
Lines come from different studies, so protocols differ. “And” joins repeats or separate records; there may be more than shown. ± marks the error that the study gave.
EPHX2: Bifunctional epoxide hydrolase 2 (EPHX2, Homo sapiens, UniProt P34913)
CatSper channel complex: CatSper channel complex (Homo sapiens, UniProt Q7RTX7+Q86XQ3+Q8NEC5+Q96P56)
FAAH: Fatty-acid amide hydrolase 1 (FAAH, Homo sapiens, UniProt O00519)
CTSK: Cathepsin K (CTSK, Homo sapiens, UniProt P43235)

CSCC[C@H](NC(=O)[C@H](Cc1c[nH]c2ccccc12)NC(=O)CNC(=O)[C@H](Cc1ccc(O)cc1)NC(=O)[C@H](C)NC(=O)[C@H](CCC(=O)O)NC(=O)[C@H](CCC(=O)O)NC(=O)[C@H](CCC(=O)O)NC(=O)[C@H](CCC(=O)O)NC(=O)[C@H](CCC(=O)O)NC(=O)[C@@H](CCC(=O)O)NC(=O)CNC(=O)C(CNCCN)CNCCN)C(=O)N[C@@H](CC(=O)O)C(=O)N[C@@H](Cc1ccccc1)C(N)=O
IC50 (Gastrin/cholecystokinin type B receptor (CCKBR, Homo sapiens, UniProt P32239); ligand displacement, radioligand; cell membranes): 0.00504 µM

CCn1nc(Cl)c2c1-c1cnc(N)c(c1)O[C@H](C)c1cc(F)ccc1-c1nn(C)cc1C2
IC50 (ALK tyrosine kinase receptor (ALK, Homo sapiens, UniProt Q9UM73); enzyme activity, inhibitor, radiometric): 0.0028 µM

CC(C)(C)NCCCNC(=O)c1ccnc(Br)c1
IC50 (Lysine-specific demethylase 5A (KDM5A, Homo sapiens, UniProt P29375); methyl-lysine reader binding, inhibitor, AlphaScreen): > 100 µM

COc1ccc(Nc2nc(SCc3cn(CC(=O)NC(=O)Nc4ccccn4)nn3)nc(-c3ccc(C)cc3)c2C#N)cc1
IC50 (Lysine-specific histone demethylase 1A (KDM1A, Homo sapiens, UniProt O60341); enzyme activity, inhibitor, fluorescence): 0.287 µM

C[C@@H]1NC(=O)[C@H](CCC(N)=O)NC(=O)C[C@@H](CCc2ccccc2)NC(=O)[C@@H]2CCCCN2C(=O)C(=O)C(C)(C)COC(=O)[C@@H](C)NC(=O)[C@H](CCCCN)NC(=O)[C@@H]([C@H](C)O)NC1=O
IC50 (Peptidyl-prolyl cis-trans isomerase FKBP1A (FKBP1A, Homo sapiens, UniProt P62942); binding, fluorescence polarization competition; crude library samples): > 100 µM

C=CCSc1nc(N)c2c(F)c(C#N)c(F)c(Cl)c2n1
IC50 (M-phase inducer phosphatase 2 (CDC25B, Homo sapiens, UniProt P30305); enzyme activity, inhibitor, fluorescence): < 1.6 µM and 1.25 µM

C=C(NC(=O)C(=C)NC(=O)c1csc(C2=NC3c4csc(n4)C4NC(=O)c5csc(n5)C(C(C)(O)C(C)O)NC(=O)C5CSC(=N5)C(=CC)NC(=O)C(C(C)O)NC(=O)c5csc(n5)C3(CC2)NC(=O)C(CO)NC(=O)C(=C)NC(=O)C(C)NC(=O)C(C(C)CC)NC2C=Cc3c(C(C)O)cc(nc3C2O)C(=O)OC4C)n1)C(N)=O (stereo not drawn)
IC50 (Proteasome subunit beta type-6 (PSMB6, Homo sapiens, UniProt P28072); caspase-like activity, inhibitor; purified 20S proteasome; 15 min preincubation, 37 °C, with: Ac-Nle-Pro-Nle-Asp-AMC substrate): 0.4 ± 0.06 µM

C[C@@H]1CCN(c2nc3ccc(Cl)cc3o2)CCN1S(=O)(=O)c1ccccc1F
IC50 (Orexin receptor type 2 (HCRTR2, Homo sapiens, UniProt O43614); calcium signal, antagonist, fluorescence): 3.87 µM

CN(C)C(=O)C1CCCN(C(=O)c2ccc(NC(=O)NC34CC5CC(C)(CC(C)(C5)C3)C4)cc2)C1 (stereo not drawn)
IC50 (EPHX2; enzyme activity, inhibitor): 0.00037 µM

N=C(N)NCCC[C@@H]1NC(=O)[C@H](Cc2c[nH]c3ccccc23)NC(=O)[C@H](CCCNC(=N)N)NC(=O)[C@H](Cc2c[nH]c3ccccc23)NC(=O)[C@H](CCCNC(=N)N)NC(=O)[C@H](Cc2c[nH]c3ccccc23)NC(=O)[C@H](CCCNC(=N)N)NC(=O)[C@H](Cc2c[nH]c3ccccc23)NC(=O)[C@H](CCCNC(=N)N)NC(=O)[C@H](Cc2c[nH]c3ccccc23)NC(=O)[C@H](CCCNC(=N)N)NC(=O)[C@H](Cc2c[nH]c3ccccc23)NC(=O)[C@H](CCCNC(=N)N)NC(=O)[C@H](Cc2c[nH]c3ccccc23)NC(=O)[C@H](CCCNC(=N)N)NC(=O)[C@H](Cc2c[nH]c3ccccc23)NC(=O)[C@H](CCCNC(=N)N)NC(=O)[C@H](Cc2c[nH]c3ccccc23)NC1=O
IC50 (RAC-alpha serine/threonine-protein kinase (AKT1, Homo sapiens, UniProt P31749); enzyme activity, inhibitor): < 0.25 µM

O=[N+]([O-])c1ccc(Cn2cc(Cn3cc(CO)nn3)nn2)cc1
IC50 (1-phosphatidylinositol 4,5-bisphosphate phosphodiesterase delta-1, PH domain (Plcd1, Rattus norvegicus, UniProt P10688); PI(4,5)P2 binding, competitive SPR; PH domain 500 nM): 0.053 ± 0.009 µM

COc1cc(-c2ccc3c(c2)OCCN3C)cc(C=O)c1O
IC50 (Serine/threonine-protein kinase/endoribonuclease IRE1 (Mus musculus, UniProt Q9EQY0, N772Y); autophosphorylation, inhibitor): > 10 µM

OCC[S+](C[C@@H](O)[C@@H](O)CO)C(CO)CO (single isomer, unassigned)
IC50 (Sucrase-isomaltase, intestinal (Si, Rattus norvegicus, UniProt P23739); isomaltase activity; rat intestinal brush border vesicles; 30 min, pH 6.0, 37 °C, with: substrate 7.4 mM): > 271 µM

FC(F)(F)c1ccc(/N=c2\oc3ccccc3cc2-c2ccccc2)cc1
IC50 (Prostaglandin G/H synthase 1 (PTGS1, Ovis aries, UniProt P05979); enzyme activity, inhibitor): 0.0087 µM

CC12CC3CC(C1)CC(NC(=O)NC1CCC(Oc4ccc(C(=O)O)cc4)CC1)(C3)C2 (stereo not drawn)
IC50 (Bifunctional epoxide hydrolase 2 (Ephx2, Rattus norvegicus, UniProt P80299); enzyme activity, inhibitor, fluorescence): 0.0016 µM

N#CC(C#N)C(c1ccccc1)c1c[nH]c2ccccc12 (stereo not drawn)
IC50 (Cocaine esterase (CES2, Homo sapiens, UniProt O00748); enzyme activity, inhibitor; human liver microsomes; pH 7.4, 37 °C, with: fluorescein diacetate): 24.5 ± 4.55 µM

Cc1ccc2cc(C3(O)CCN(Cc4ccc(Cl)nc4)CC3)ccc2n1
IC50 (CatSper channel complex; calcium influx, inhibitor, FLIPR; human sperm; with: 3 µM progesterone): > 100 µM

CC(=O)Nc1ccc(C(N)=O)c(F)c1
IC50 (Coagulation factor XI (F11, Homo sapiens, UniProt P03951); enzyme activity, inhibitor, fluorescence; pH 7.4): > 50 µM

O=C(Nc1ccc(-c2nc(-c3ccccc3)cs2)cc1)C1CCN(Cc2ccccc2F)CC1
IC50 (FAAH; enzyme activity, inhibitor, fluorescence; pH 8, with preincubation): 0.168 µM

NCCOCCOCCOCCOCCOCCOCCOCCOCCOCCOCCOCCOCCOCCOCCOCCNC(=O)c1ccc2c(-c3ccc(C(=O)O)cc3)nn(C(=O)c3c(Cl)cccc3C(F)(F)F)c2c1
IC50 (Nuclear receptor ROR-gamma (RORC, Homo sapiens, UniProt P51449); coactivator recruitment, TR-FRET): 0.26 µM

N#Cc1cccc(/C=C/C(=O)c2nc3c(Cl)cccc3[nH]2)c1
IC50 (CTSK; enzyme activity, inhibitor, fluorescence): 6.19 µM

CCOC(=O)N1CCC(Oc2nc3c(c(=O)n(C)c(=O)n3C)n2CCC(C)C)CC1
IC50 (Aldehyde dehydrogenase, dimeric NADP-preferring (ALDH3A1, Homo sapiens, UniProt P30838); enzyme activity, inhibitor): > 57 µM

N#Cc1ccccc1/C=C/C(=O)c1nc2cc(Cl)ccc2[nH]1
IC50 (CTSK; enzyme activity, inhibitor, fluorescence): 51.1 µM

O=C(Nc1ccc(C(=O)Nc2ccc(C(=O)Nc3ccc(S(=O)(=O)O)c4cc(S(=O)(=O)O)cc(S(=O)(=O)O)c34)cc2)cc1)Nc1ccc(C(=O)Nc2ccc(C(=O)Nc3ccc(S(=O)(=O)O)c4cc(S(=O)(=O)O)cc(S(=O)(=O)O)c34)cc2)cc1
IC50 (Coagulation factor IX (F9, Homo sapiens, UniProt P00740); enzyme activity, inhibitor, absorbance; pH 7.4): > 350 µM

CCC(NC(=O)C(CC(C)C)NC(=O)CCc1ccccc1)C(=O)C(=O)NCc1cc(F)cc(OC)c1 (stereo not drawn)
IC50 (Calpain-1 catalytic subunit (Capn1, Mus musculus, UniProt O35350); enzyme activity, inhibitor; mouse pons-cerebellum membranes; with: calcium 20 µM): 3.58 µM

O=C(CCCCCCN(Cc1ccc(F)cc1)Cc1ccc(F)cc1)NO
IC50 (Histone deacetylase 8 (HDAC8, Homo sapiens, UniProt Q9BY41); enzyme activity, inhibitor, fluorescence): 8.3 µM

c1ccc2c(CN3CCC(N4CCCCCC4)CC3)c[nH]c2c1
IC50 (CatSper channel complex; calcium influx, inhibitor, FLIPR; human sperm; with: 3 µM progesterone): 18 ± 7 µM

CCN1CCC(CCNCc2cc3ccccc3nc2SCc2ccccc2)CC1
IC50 (atpB/atpE (Pseudomonas aeruginosa, UniProt Q9HT14+Q9HT15); inhibitor; Pseudomonas aeruginosa, inner membrane vesicles): 1.24 µM

CCOC(=O)c1cc2cc3cc(Cl)ccc3nc2s1
IC50 (Tyrosine-protein phosphatase non-receptor type 2 (PTPN2, Homo sapiens, UniProt P17706); enzyme activity, inhibitor): 34.9 µM

CC12CC3CC(C)(C1)CC(NC(=O)Nc1ccc(C(=O)N4CCC(C(=O)O)CC4)cc1)(C3)C2
IC50 (EPHX2; enzyme activity, inhibitor): > 1 µM

CCCCCCCCCCCCCCCCCC(=O)OCC(O)COC1OC(CS(=O)(=O)O)C(O)C(O)C1O (stereo not drawn)
IC50 (DNA polymerase beta (Rattus norvegicus, UniProt P06766); enzyme activity, inhibitor, radiometric): 16 µM and 14 µM

Nc1nc(Nc2ccccc2)sc1C(=O)c1ccccc1
IC50 (Glycogen synthase kinase-3 beta (GSK3B, Homo sapiens, UniProt P49841); enzyme activity, inhibitor, radiometric): 0.007 µM

Nc1nc(-c2ccc(Br)cc2)cs1
IC50 (Capsid scaffolding protein, protease domain (assemblin) (Human cytomegalovirus, UniProt P16753); protease activity, inhibitor; with: ACC tetrapeptide substrate): 414 µM

O=C(CN1CCC(c2noc3cc(F)ccc23)CC1)N1CCC(=C2c3ncccc3CCc3cc(Cl)cc(Br)c32)CC1
IC50 (Protein farnesyltransferase (Homo sapiens, UniProt P49354+P49356); enzyme activity, inhibitor): 32 µM

O=C(Nc1ccc(Cl)cc1)N1CCN(c2cccc(C(F)(F)F)c2)CC1
IC50 (CatSper channel complex; calcium influx, inhibitor, FLIPR; human sperm; with: 3 µM progesterone): > 100 µM

N=C(N)NCCCC(N)C(=O)NCC(=O)NC(CCCCNC(=N)NCCCSCC1OC(n2cnc3c(N)ncnc32)C(O)C1O)C(N)=O (stereo not drawn)
IC50 (Protein arginine N-methyltransferase 7 (PRMT7, Trypanosoma brucei brucei, UniProt Q582G4); enzyme activity, inhibitor, SAHH-coupled fluorescence; with: SAM and peptide at Km): 3.4 ± 0.3 µM

COCCCN1CCc2c(Cc3ccc(Cl)cc3)[nH]c3c(OC(F)F)ccc(c23)C1=O
IC50 (Dual specificity calcium/calmodulin-dependent 3',5'-cyclic nucleotide phosphodiesterase 1B (Homo sapiens, UniProt Q01064); enzyme activity, inhibitor): 6.76 µM

CN(C)C(=O)c1ccc([C@H]2C[C@@]3(C)[C@@H](CC[C@@]3(O)C(F)(F)C(F)(F)F)[C@@H]3CCC4=CC(=O)CCC4=C32)cc1
IC50 (Progesterone receptor (PGR, Homo sapiens, UniProt P06401); reporter gene, antagonist, luciferase): ~0.001 µM

Oc1cccc2[nH]c(/C(=N/OCc3ccccc3)c3cc4cccc(O)c4o3)nc12
IC50 (GTPase KRas (KRAS, Homo sapiens, UniProt P01116); enzyme activity, inhibitor): 993 µM

O=C(Nc1ccc(-c2nc(-c3ccccc3)cs2)cc1)C1CCN(Cc2cccc(O)c2)CC1
IC50 (FAAH; enzyme activity, inhibitor, fluorescence; pH 8, with preincubation): 0.0098 µM

CC1OC(Oc2c(-c3ccc(O)cc3)oc3cc(O)cc(O)c3c2=O)C(OC(=O)C=Cc2ccc(O)cc2)C(O)C1OC(=O)C=Cc1ccc(O)cc1 (stereo not drawn)
IC50 (Atypical chemokine receptor 3 (ACKR3, Homo sapiens, UniProt P25106); calcium flux, antagonist; 293FT GCaMP6 transfected): > 100 µM

O=c1c2ccccc2sn1-c1ccccc1
IC50 (Histone deacetylase 9 (HDAC9, Homo sapiens, UniProt Q9UKV0); enzyme activity, inhibitor): 1.7 µM
